Measurements gathered from unrelated publications.
Parts stem from different laboratories: compare values within a part only. Positions count from the first letter of the parent shown.

Series 1
Target: ABI1, truncated, D143A, DHFR fusion (Arabidopsis thaliana)
Technique: DHFR PCA, deep sequencing
Sample: yeast
Notes: methotrexate growth selection, single substitutions
Together with: (+)-ABA 710 µM
Baseline: wild-type fitted maximum
Direction: higher = stronger binding
Parent: PYL1, truncated, DHFR fusion (Arabidopsis thaliana); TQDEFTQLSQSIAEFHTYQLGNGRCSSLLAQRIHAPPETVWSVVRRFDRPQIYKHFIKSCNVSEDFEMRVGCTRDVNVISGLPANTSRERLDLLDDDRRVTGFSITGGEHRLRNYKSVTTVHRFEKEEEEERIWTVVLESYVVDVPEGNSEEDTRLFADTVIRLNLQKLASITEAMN
Substitution | relative binding score [%]
M176D | 101
S42K | 111
E174K | 92.9
T39L | 105
V161W | 44.2
I12E | 74.1
I162C | 96.6
T154A | 94.6
H55W | 103
V137G | 0.967
G81Y | 34.1
S80Y | 81.4
R69E | 89.4
V121A | 54.1
D65Q | 105
R98W | 52.1
V70P | 107

Series 2
Target: Fragile X messenger ribonucleoprotein 1, C-terminal low-complexity region (Fmr1, Mus musculus, UniProt P35922)
Technique: RNA Bind-n-Seq
Molecule type: RNA
Sample: in vitro
Tested at: 200 nM
Notes: whole 134-nt RNA, ends assumed
Together with: 150 mM LiCl
Baseline: input library
Direction: higher = stronger binding
All molecules: 7-deaza-guanosine replaces G
All sequences stand within: GGGAGUUCUACAGUCCGACGAUC … UGGAAUUCUCGGGUGUCAAGG
Strand | log2 enrichment
GUCCUGUGCUACACAUCGUAUGUACCGAAUCAAACCCCCAAAUUUUUUUAAACCCAAAAAAGUAUUAUGUUACGCCGUUCGGAUCUGCAC | 1.15
CUCAAGUCCUGUGCUACACAUCGUAUGUACCGAAUCGGGUUGGUUGGGUUGGGAAAGUAUUAUGUUACGCCGUUCGGAUCUGCACUUCCA | -0.414
UCCUCAAGUCCUGUGCUACACAUCGUAUGUACCGAAUCGGAGGAGGAAAGGAAAGUAUUAUGUUACGCCGUUCGGAUCUGCACUUCCAGC | -2.17
CCUGUGCUACACAUCGUAUGUACCGAAUCGGCCCCCCGGGGCCCCCCGGGGCCCCCCGGGAAAGUAUUAUGUUACGCCGUUCGGAUCUGC | -3.37
AGUCCUGUGCUACACAUCGUAUGUACCGAAUCGGGAAAAGGGGAAAAGGAAAAGGGGAAAGUAUUAUGUUACGCCGUUCGGAUCUGCACU | -0.534
UAACUUUAGAGGAGGAUCUGAUGGAUAUGGCAGUGGACGUGGAUUUGGGUAUGGCUAUAAUGGGUAUGGAGGAGGACCUGGAGGUGGCAA | -0.131
UUGAACAUCUGCAGGAAAAGAGGCGAGAGGGCACUUUGAGAGUGGAUACCUACACUCUAGUGCAGCCUGAGGCAGAAGACCAUGUUGAGA | -1.54
GCAGGAAGUAAAAACAAAUGGAAAUGCUUCGGAAAGUGGCAGGGGUGGGGGUUGCUAAGGAAAGGGUGGGAUGGGAGUGGGUAAAGAGUU | 2.03
CCUGUGCUACACAUCGUAUGUACCGAAUCGGGUUUUUUUGGGUUUUUUUGGUUUUUUUGGGAAAGUAUUAUGUUACGCCGUUCGGAUCUG | -0.368
AAGUCCUGUGCUACACAUCGUAUGUACCGAAUCGGGCCCGGGGCCCGGGCCCGGGGAAAGUAUUAUGUUACGCCGUUCGGAUCUGCACUU | -3.48
GUCCUGUGCUACACAUCGUAUGUACCGAAUCGGUUUUUUGGUUUUUUGGGUUUUUUGGGAAAGUAUUAUGUUACGCCGUUCGGAUCUGCA | -1.4

Series 3
Target: CCND1, cyclin fold, Cln2 fusion (human)
Technique: yeast growth competition, sequencing
Sample: yeast
Notes: weak parent motif
Baseline: not given
Direction: higher = stronger binding
Parent: MICAL3 docking peptide (human); LQLRRQLSFSEDS; partner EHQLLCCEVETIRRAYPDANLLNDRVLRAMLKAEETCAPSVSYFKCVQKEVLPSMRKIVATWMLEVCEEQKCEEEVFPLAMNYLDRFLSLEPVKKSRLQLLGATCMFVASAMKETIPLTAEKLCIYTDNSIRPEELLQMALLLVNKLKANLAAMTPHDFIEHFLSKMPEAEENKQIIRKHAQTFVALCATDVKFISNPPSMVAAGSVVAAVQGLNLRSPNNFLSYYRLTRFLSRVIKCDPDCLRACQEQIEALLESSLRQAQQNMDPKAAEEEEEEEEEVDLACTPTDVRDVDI
Substitution | normalised enrichment score
R5I | 0.0584
L3A | 3.04
F9A | 0.122
R4P | 0.422
L7K | -0.129
R5K | 0.13
R4W | 0.188
F9V | -0.229
Q2T | 0.479
S10Y | 0.102
F9H | -0.369
L3I | 1.21
L3H | -0.143
R5P | 0.223
S10L | 0.233
S8R | -0.424
S8H | 0.264
Q2K | 0.286
D12I | 1.03
L7R | -0.134
R5H | -0.301
D12S | 0.0425
S10K | -0.0136
Q6W | 0.24
L7I | 1.01

Series 4
Target: RING finger protein unkempt homolog, zinc fingers 1-6, GST-SBP tag (UNK, Homo sapiens, UniProt Q9C0B0, residues 30-357)
Sequence of UniProt Q9C0B0 (30-357, looked up): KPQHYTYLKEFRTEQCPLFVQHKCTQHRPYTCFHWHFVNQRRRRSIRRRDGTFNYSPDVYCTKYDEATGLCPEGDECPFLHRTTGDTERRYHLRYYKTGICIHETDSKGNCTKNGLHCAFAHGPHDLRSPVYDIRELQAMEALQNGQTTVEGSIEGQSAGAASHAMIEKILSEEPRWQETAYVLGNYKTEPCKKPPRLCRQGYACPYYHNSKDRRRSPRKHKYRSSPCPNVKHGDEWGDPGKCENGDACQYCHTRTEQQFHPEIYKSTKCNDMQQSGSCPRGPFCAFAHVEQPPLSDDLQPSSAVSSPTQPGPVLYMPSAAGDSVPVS
Technique: RNA Bind-n-Seq
Molecule type: RNA
Sample: in vitro
Tested at: not given
Notes: RNA with constant flanks, human and mouse sites, ends assumed
Baseline: input RNA pool
Direction: higher = stronger binding
All sequences stand within: GGGAGUUCUACAGUCCGACGAUC … CAACAGAGGAUUGAGCAUCA
Strand | bound/input enrichment
UUAAAGAAGCCACUGUGUUUUAGUGUAGUUGGCAAAAAUAUAAAAGCUGUUUCUUAUUUGCCCCUAUUUUUUUGGUGUCUUAAAGUUAUAUAUUAAAUCACAGAGAAGCAAGGGAGAAAG | 0.917 ratio
AUUAGAAAUGAUACUUUCAGUGACUCUCCAGUUUGGCCCUGGAUCCCAUCUUUGUCUGAUAUAGCAGCUGUAUUCUUCAACAUGGGCGUUGGUUUUGGAUCUUUGUUUCCUCUGGAGACU | 0.796 ratio
UAUGAAGUAUUUCAGACCCAGUUGUAGAUCAUCACUCCGCCACUCUCUCCUUUAUUGCCUACUAGUUAUUUAAAUUGGACUUUUAAUAUCCUACCAGCUGCUCUUCAGACACACAUGGUG | 17.2 ratio
UGCAAGCUGCCAAGACUGUCUCUGAACGGGGUCCGGUUUAAGCGGAUAUCGGGGACAUCCAUAGCCUUCAAAAAUAUUGCUUCCAAAAUUGCCAAUGAGCUAAAGCUGUAACCCAGUGAU | 0.794 ratio
GUUGAUUCCCUCAACGGGUUAGUUUACGUAGCCCAAAGAGGGGAUAACAUCCCCAAGGUAUUAGUGUUCUCAGAGGAUGGCUAUUUCCUACGAGCCUGGAAUUAUACAGUUGACACACCC | 0.176 ratio
CUGAAACAAUAUUGAUUCAAAUUAUUCUCCCUACCCUUAUUUACAGCUGCUGUUUUUAUUUUUAAGGAAUGGUCGUUGGAGGUCAGAGUGGAAGUUUACAGUCACUCCUUCCACCACACA | 0.433 ratio
AUUUUUGAAUCAACAUCUUUUCCUUCUGUCCCUCCCUUUCUCCAUCUUUUGGUCACUACCCUCCAACUCUAGGAACAGGGGUGUAGAGGAGAAGCCCUAGGCUUGAGAUUUCAUCUGCUC | 0.242 ratio
GGCUGGAGAAGGGCCCUUCUCAGAAACCUAUACCUUCAGCACAACCAAAAGUGUCCCCCCCACCAUCAAAGCACCUCGAGUAACACAGUUAGAAGGAAAUUCAUGUGAAAUUUUAUGGGA | 0.971 ratio
GCUACUUUUGUUUUAGAGAAUUUCAGCACUUUGCGUCAGAGAGCAGAUCCUGUUUACAGUCCACCUCUUCAAGUUUCAGGACUUUGCUGGAGGUUAAAAGUUUACCCAGAUGGAAAUGGA | 0.351 ratio
AGACCACACCUACCUGUCAUCUACUUUCACCAAAGGAGAACGGGCGUUACUGUCCAUUACAGAUAACAGUUCAUCCUCAGACAUUGUGGAGAGCUCAACUUCUUAUAUUAAAAUCUCAAA | 0.154 ratio
CUGUUUAUGGGAGACUAUGUGGACAGAGGAUAUUACUCUGUUGAAACAGUUACACUGCUUGUAGCUCUUAAGGUUCGUUACCGAGAGCGCAUCACCAUACUCCGAGGGAAUCACGAGAGC | 0.128 ratio

Series 5
Target: FOSB, bZIP domain (human)
Technique: DHFR protein complementation
Sample: yeast
Notes: single substitutions, most at no-binding floor
Baseline: wild-type JUN-FOS pair
Direction: higher = stronger binding
Parent: JUN, bZIP domain (human); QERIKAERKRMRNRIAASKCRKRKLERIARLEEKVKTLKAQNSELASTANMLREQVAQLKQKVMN; partner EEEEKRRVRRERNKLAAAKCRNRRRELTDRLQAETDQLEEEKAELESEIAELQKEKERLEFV
Substitution | binding fitness
E54P | -1.16 natural log
V35M | -0.183 natural log
T48E | -0.225 natural log
E32H | -0.253 natural log
A29V | -0.415 natural log
A40V | -0.121 natural log
R30E | 0.14 natural log
E32S | -0.0995 natural log
Q55I | -0.0564 natural log
Q55T | -0.142 natural log
E32C | 0.101 natural log
R53L | -0.834 natural log
S47R | 0.027 natural log
E44G | -0.237 natural log
R30L | 0.0184 natural log
R30A | 0.19 natural log
E32T | -0.167 natural log

Some of these lines once more (series 3):
Substitution | normalised enrichment score
L7K | -0.129
R5K | 0.13
R4W | 0.188
F9V | -0.229
Q2T | 0.479
S10Y | 0.102
F9H | -0.369
L3I | 1.21
L3H | -0.143
